Results gathered from unrelated publications.
Lines come from different studies, so protocols differ. ± gives the spread as reported.

Compound	assay	system	setting	tissue uptake
CCCC[C@H](NC(=O)CCCCCCCNC(=O)CN1CCN(CC(=O)O)CCN(CC(=O)O)CC1)C(=O)N[C@H]1CC(=O)NCCCC[C@@H](C(N)=O)NC(=O)[C@H](Cc2c[nH]c3ccccc23)NC(=O)[C@H](CCCNC(=N)N)NC(=O)[C@@H](Cc2ccccc2)NC(=O)[C@H](Cc2c[nH]cn2)NC1=O [fluorine-18 labelled]	–	C57 mice B16-F10 melanoma, stomach	intravenous, 0.37 MBq, 2 h	0.65 ± 0.14 %ID/g
COc1ccc(Nc2nc(Nc3ccc(OCCOCCOCC[18F])cc3)ncc2Br)cc1	–	ICR mice, S180 tumour-bearing, bone	intravenous, 370 kBq, 5 min	3.16 ± 0.16 %ID/g
O=C(NCC1OC2CCC=CCCC2O1)c1ccc([18F])nc1 (stereo not shown)	–	female BALB/c nude mice, LS174T tumour, muscle	intravenous, 60 min, added: unmodified CC49 24 h before	0.5 ± 0.2 %ID/g
O=C([O-])CN1CCN(CC(=O)[O-])CCN(CC(=O)NC[C@H]2CC[C@H](C(=O)N[C@H](Cc3cnc4ccccc4c3)C(=O)NCCCC[C@H](NC(=O)N[C@@H](CCC(=O)O)C(=O)O)C(=O)O)CC2)CCN(CC(=O)[O-])CC1.[64Cu+2]	ex vivo gamma counting	22Rv1 tumour-bearing mice, lung	intravenous, 0.74 MBq, 2 h post-injection	9.84 %ID/g
CC(C)C[C@H](NC(=O)[C@@H](CCCCNC(=O)[C@@H](Cc1ccccc1)NC(=O)CCCCCCCNC(=O)CN1CCN(CC(=O)O)CCN(CC(=O)O)CCN(CC(=O)O)CC1)NC(=O)[C@H](Cc1ccc(O)cc1)NC(=O)[C@H](CO)NC(=O)[C@H](Cc1c[nH]c2ccccc12)NC(=O)[C@H](Cc1c[nH]cn1)NC(=O)[C@@H]1CCC(=O)N1)C(=O)N[C@@H](CCCNC(=N)N)C(=O)N1CCC[C@H]1C(=O)NCC(N)=O [indium-111 labelled]	biodistribution	male athymic nude mice, DU-145 prostate cancer xenograft, liver	intravenous, 0.037 MBq, 1 h post-injection	0.68 ± 0.11 %ID/g
COc1ccc(Nc2nc(Nc3ccc(OCCOCC[18F])cc3)ncc2Br)cc1	–	ICR mice, S180 tumour-bearing, kidney	intravenous, 370 kBq, 60 min	6.12 ± 0.12 %ID/g
CCCC[C@H](NC(=O)CNC(=O)CNC(=O)[C@H](CCCCNC(=O)[C@H](CC(=O)O)NC(=O)C(C)c1ccc(CC(C)C)cc1)NC(=O)CN1CCN(CC(=O)O)CCN(CC(=O)O)CCN(CC(=O)O)CC1)C(=O)N[C@H]1CC(=O)NCCCC[C@@H](C(N)=O)NC(=O)[C@H](Cc2c[nH]c3ccccc23)NC(=O)[C@H](CCCNC(=N)N)NC(=O)[C@@H](Cc2ccccc2)NC(=O)[C@H](Cc2c[nH]cn2)NC1=O (stereo partly shown) [lutetium-177 labelled]	–	C57 mice, tumour-bearing, skin	2 h	1.46 ± 0.34 %ID/g
COc1ccc2c(c1)C(C)(C)C(/C=C/C1=C(Oc3ccc(C(=O)NCCCCOc4cc(CN(Cc5ccccn5)Cc5ccccn5)cc(CN(Cc5ccccn5)Cc5ccccn5)c4)cc3)C(=C/C=C3/N(CCCCS(=O)(=O)[O-])c4ccc(OC)cc4C3(C)C)CCC1)=[N+]2CCCCS(=O)(=O)[O-].O=[N+]([O-])[O-].O=[N+]([O-])[O-].[99Tc+].[C-]#[O+].[C-]#[O+].[C-]#[O+].[Zn+2]	–	BALB/c mice, S. aureus myositis, pancreas	12 h post-injection	1.22 %ID/g
O=C(NCC1OC2CCC=CCCC2O1)c1ccc(COCCOCCOCC[18F])cc1 (stereo not shown)	–	healthy female BALB/c nude mice, large intestine	intravenous, 7.4 MBq per mouse, 30 min	7 ± 0.9 %ID/g
Cc1cc(C)n(CCN(CCN)CCCCCCNC(=O)[C@@H](N)Cc2c[nH]cn2)n1.[99Tc+].[C-]#[O+].[C-]#[O+].[C-]#[O+]	–	BALB/c nude mice, MCF7 xenograft, brain	intravenous, 4 h	0.04 ± 0.01 %IA/g

Excerpt of the above:
Compound	assay	system	setting	tissue uptake
Cc1cc(C)n(CCN(CCN)CCCCCCNC(=O)[C@@H](N)Cc2c[nH]cn2)n1.[99Tc+].[C-]#[O+].[C-]#[O+].[C-]#[O+]	–	BALB/c nude mice, MCF7 xenograft, brain	intravenous, 4 h	0.04 ± 0.01 %IA/g
CCCC[C@H](NC(=O)CCCCCCCNC(=O)CN1CCN(CC(=O)O)CCN(CC(=O)O)CC1)C(=O)N[C@H]1CC(=O)NCCCC[C@@H](C(N)=O)NC(=O)[C@H](Cc2c[nH]c3ccccc23)NC(=O)[C@H](CCCNC(=N)N)NC(=O)[C@@H](Cc2ccccc2)NC(=O)[C@H](Cc2c[nH]cn2)NC1=O [fluorine-18 labelled]	–	C57 mice B16-F10 melanoma, stomach	intravenous, 0.37 MBq, 2 h	0.65 ± 0.14 %ID/g
